Experimental data gathered from unrelated publications.
Every numbered part comes from another study and shows a few of its results, in no order. Changes are numbered by the printed parent chain.

Study 1
Target: ABI1, truncated, D143A, DHFR fusion (Arabidopsis thaliana)
Technique: DHFR PCA, deep sequencing
Sample: yeast
Notes: methotrexate growth selection, single substitutions
With: (+)-ABA 0.11 µM
Reference: wild-type fitted maximum
Reading: higher = stronger binding
Parent: PYL1, truncated, DHFR fusion (Arabidopsis thaliana); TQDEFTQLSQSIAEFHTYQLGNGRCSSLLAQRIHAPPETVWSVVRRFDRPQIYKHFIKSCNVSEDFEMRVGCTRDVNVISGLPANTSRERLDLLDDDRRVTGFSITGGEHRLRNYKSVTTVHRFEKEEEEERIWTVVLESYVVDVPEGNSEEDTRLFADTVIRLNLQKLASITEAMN
`S26V` — result for “relative binding score”: 3.07%.
`R155E` — result for “relative binding score”: 4.44%.
Under “relative binding score”, `E147H` is recorded as 16.3%.
`R163W` — result for “relative binding score”: 0.0809%.
`R90K` — result for “relative binding score”: 6.07%.
For `P83K`, “relative binding score” read 20.2%.
Under “relative binding score”, `V43R` is recorded as -1.86%.
For `T101R`, “relative binding score” read -8.94%.
`P50Y` — result for “relative binding score”: 2.11%.
`V118H` — result for “relative binding score”: 8.21%.
For `V161E`, “relative binding score” read 0.261%.
`G107E`: “relative binding score” 16.8%.
Under “relative binding score”, `Y141I` is recorded as -2.86%.

Study 2
Target: Ras GTPase-activating protein-binding protein 1, RRM domain (G3BP1, Homo sapiens, UniProt Q13283)
UniProt Q13283, sequence (whole entry, looked up): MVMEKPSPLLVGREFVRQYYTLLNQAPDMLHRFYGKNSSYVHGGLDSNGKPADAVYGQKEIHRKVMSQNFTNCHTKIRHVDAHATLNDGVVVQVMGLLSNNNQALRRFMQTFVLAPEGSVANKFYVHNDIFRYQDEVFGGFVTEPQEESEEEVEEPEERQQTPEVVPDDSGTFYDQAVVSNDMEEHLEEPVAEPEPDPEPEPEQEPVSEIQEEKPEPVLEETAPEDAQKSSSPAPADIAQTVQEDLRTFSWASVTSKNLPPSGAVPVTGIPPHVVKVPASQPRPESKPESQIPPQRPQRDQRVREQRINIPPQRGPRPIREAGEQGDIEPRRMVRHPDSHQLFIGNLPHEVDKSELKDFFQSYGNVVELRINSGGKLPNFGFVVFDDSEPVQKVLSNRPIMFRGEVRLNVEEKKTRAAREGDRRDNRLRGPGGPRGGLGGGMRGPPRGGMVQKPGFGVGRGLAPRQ
Technique: RNA Bind-n-Seq
Molecule type: RNA
Sample: in vitro
Concentration: 1 µM
Notes: whole 134-nt RNA, ends assumed
With: 150 mM KCl
Reference: input library
Reading: higher = stronger binding
`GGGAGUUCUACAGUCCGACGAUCUCAAGUCCUGUGCUACACAUCGUAUGUACCGAAUCGGUUUGGUGGUUUUUUUGGAAAGUAUUAUGUUACGCCGUUCGGAUCUGCACUUCCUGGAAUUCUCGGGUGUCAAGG` gave a log2 enrichment of -0.221.
`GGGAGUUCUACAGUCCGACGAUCCUCAAGUCCUGUGCUACACAUCGUAUGUACCGAAUCGGGGUUGGUUGGGGUUGGAAAGUAUUAUGUUACGCCGUUCGGAUCUGCACUUCCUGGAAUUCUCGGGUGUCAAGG` has a log2 enrichment of -0.31.
With `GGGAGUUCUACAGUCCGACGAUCCACAGACAACACGCACCCACACAGACACAGAGGGAAGGGGUUGGGAUGGGGACAGGGUGCACAGCAGGGGGGGGUAGGACCCCAGCCCCUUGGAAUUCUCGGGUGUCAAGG` the log2 enrichment was -0.323.
`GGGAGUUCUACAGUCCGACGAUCUCCUGUGCUACACAUCGUAUGUACCGAAUCGGAAAAAAGGGGAAAAAAGGGAAAAAAGGGAAAGUAUUAUGUUACGCCGUUCGGAUCUGCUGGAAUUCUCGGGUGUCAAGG` has a log2 enrichment of 0.0451.
`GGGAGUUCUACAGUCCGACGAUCAGUCCUGUGCUACACAUCGUAUGUACCGAAUCGGGGAAAAGGAAAAGGGGAAAAGGGAAAGUAUUAUGUUACGCCGUUCGGAUCUGCACUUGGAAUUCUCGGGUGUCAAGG` gave a log2 enrichment of 0.0635.
`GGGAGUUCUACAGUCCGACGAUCGCAGGAAGUAAAAACAAAUGGAAAUGCUUCGGAUAGUGGCAGGGGAAAGGGUUGCUAAGGAAAGGGUGGGAUGGGAGUGGGUAAAGAGUUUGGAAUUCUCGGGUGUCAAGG` gave a log2 enrichment of 0.897.
For `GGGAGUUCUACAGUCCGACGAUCUGUUGCCGUGUGUCUCACCCUACCAUUUCAGAAAAAUGUUCGUUGGUGGCCUGAGCUGGGAUACUAGCAAAAAAGAUUUAAAAGACUAUUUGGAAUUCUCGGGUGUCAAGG`, the log2 enrichment was -0.207.
The log2 enrichment of `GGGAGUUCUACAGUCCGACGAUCAAGUCCUGUGCUACACAUCGUAUGUACCGAAUCGGGUUUGGGUUUGGGUUUUUGGGAAAGUAUUAUGUUACGCCGUUCGGAUCUGCACUUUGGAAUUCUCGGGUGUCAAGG` is reported as 0.585.
`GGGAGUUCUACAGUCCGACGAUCAAGUCCUGUGCUACACAUCGUAUGUACCGAAUCGGGGUGGGGAAAAAGGGGAGGGGAAAGUAUUAUGUUACGCCGUUCGGAUCUGCACUUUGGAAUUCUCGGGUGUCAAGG` has a log2 enrichment of 0.804.
`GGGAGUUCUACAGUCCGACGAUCGUCCUGUGCUACACAUCGUAUGUACCGAAUCGGGGAAAAAAGGAAAAAAGGAAAAAAGGAAAGUAUUAUGUUACGCCGUUCGGAUCUGCAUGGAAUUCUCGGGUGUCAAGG` gave a log2 enrichment of -0.0303.
For `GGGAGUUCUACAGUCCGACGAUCCACAGACAACACGCACCCACACAGACACAGAGGGAAGGGGUUGGGAUGGGGACAGGGUGGACAGCAGGGCGGGGUAGGACCCCAGCCCCUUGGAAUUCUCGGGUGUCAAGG`, the log2 enrichment was -0.00802.
The log2 enrichment of `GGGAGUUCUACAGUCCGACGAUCUCCUGUGCUACACAUCGUAUGUACCGAAUCAAACCCAAACCCCCCCAAACCCCCCCAAAAAAGUAUUAUGUUACGCCGUUCGGAUCUGCAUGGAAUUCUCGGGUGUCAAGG` is reported as -0.21.
With `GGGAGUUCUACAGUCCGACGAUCGUCCUGUGCUACACAUCGUAUGUACCGAAUCGGUUUUUUUGGUUUUUGGAAAAAAAGGAAAGUAUUAUGUUACGCCGUUCGGAUCUGCACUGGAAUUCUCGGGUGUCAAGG` the log2 enrichment was -0.215.
`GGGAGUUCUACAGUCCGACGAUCGCAGGAAGUAAAAACAAAUGCAAAUGCUUCGGAUAGUGGCAGGGGUGGGGGUUGCUAAGGAAAGGGUGGGAUGGGAGUGGGUAAAGAGUUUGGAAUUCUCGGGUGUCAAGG` has a log2 enrichment of 1.29.

Study 3
Target: CCNA2, cyclin fold, Cln2 fusion (human)
Technique: yeast growth competition, sequencing
Sample: yeast
Notes: strong parent motif
Reference: not given
Reading: higher = stronger binding
Parent: CDKN1B docking peptide (human); PSACRNLFGPVDH; partner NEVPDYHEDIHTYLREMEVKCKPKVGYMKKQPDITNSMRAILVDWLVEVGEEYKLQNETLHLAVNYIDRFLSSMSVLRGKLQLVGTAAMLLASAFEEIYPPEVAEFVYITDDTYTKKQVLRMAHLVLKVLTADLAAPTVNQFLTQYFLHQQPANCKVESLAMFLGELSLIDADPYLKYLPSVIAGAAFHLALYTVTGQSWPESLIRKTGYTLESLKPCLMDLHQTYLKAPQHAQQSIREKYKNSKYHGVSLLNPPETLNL
For `R5T`, “normalised enrichment score” read -0.407.
`P10V` — result for “normalised enrichment score”: 3.22.
`S2T`: “normalised enrichment score” 4.1.
`C4D`: “normalised enrichment score” -0.115.
`V11S`: “normalised enrichment score” 4.04.
`N6C`: “normalised enrichment score” 3.22.
Under “normalised enrichment score”, `L7A` is recorded as 0.334.
`N6L` — result for “normalised enrichment score”: 1.96.
Under “normalised enrichment score”, `H13Q` is recorded as 4.4.
For `N6P`, “normalised enrichment score” read 0.184.
For `C4I`, “normalised enrichment score” read 1.36.
For `F8T`, “normalised enrichment score” read 0.448.
For `R5I`, “normalised enrichment score” read 0.385.
For `F8K`, “normalised enrichment score” read 0.744.
Under “normalised enrichment score”, `A3L` is recorded as 2.5.
`P10N` — result for “normalised enrichment score”: 3.83.
Under “normalised enrichment score”, `S2W` is recorded as 1.7.
`D12W`: “normalised enrichment score” 3.94.

Mixed results
`PhoQ, residues 284 288 289 292 302 303 NLCILV` has a fold induction of 10.6 (PhoP, residues 12 14 15 18 19 STWGI (Escherichia coli, UniProt P23836); Sort-seq, refers to: YFP reporter; E. coli; PhoQ-PhoP variant library, with: 10 µM Mg2+; reference: high Mg2+ state, higher = stronger signaling).

Excerpt of the above (study 1):
`V118H` — result for “relative binding score”: 8.21%.
For `V161E`, “relative binding score” read 0.261%.
`G107E`: “relative binding score” 16.8%.
